Measurements pooled from the literature.
Protocols differ between the studies behind these lines. Numbers after ± are the reported error.

| SMILES | target | assay | system | setting | how to read | endpoint | value |
| --- | --- | --- | --- | --- | --- | --- | --- |
| CC1OC(Oc2c(-c3ccc(O)cc3)oc3cc(O)cc(O)c3c2=O)C(OC(=O)C=Cc2ccc(O)cc2)C(O)C1OC(=O)C=Cc1ccc(O)cc1 (stereo not drawn) | CCR2 | macrophage infiltration | mouse, thioglycollate peritonitis, peritoneum | intraperitoneal, 100 mg/kg | – | inhibition | 87% |
| CC(=O)N[C@@H](Cc1ccc(O)cc1)CN(CC(=O)N[C@@H](CCCCN)CN(CC(=O)N[C@@H](Cc1ccccc1)CN(CC(=O)N[C@H]1CCCCNc2c(F)c(F)c(c(F)c2F)S(=O)(=O)c2c(F)c(F)c(c(F)c2F)NCCCC[C@@H](CN(CC(=O)N[C@@H](C)CN(CC(N)=O)S(C)(=O)=O)S(C)(=O)=O)NC(=O)CN(S(C)(=O)=O)C[C@H](CC(C)C)NC(=O)CN(S(=O)(=O)CCN)C1)S(=O)(=O)CC(C)C)S(=O)(=O)CCN)S(C)(=O)=O | CREB | reporter gene, inhibitor, CRE Renilla luciferase | HEK-293T | 30 min, together with: forskolin 10 µM for 5 h | – | IC50 | > 100 µM |
| C[C@@H](N)C1CCN(S(=O)(=O)c2cccc3c(=O)[nH]ccc23)CC1 | ROCK | MLC2 phosphorylation, inhibitor | HUVEC | 50 µM, 1 h then washout, together with: LPA | – | duration of action | ≥ 4 h |
| CCCCCCCCCCCC1N=C(N)N=C(N)N1c1ccc(Cl)cc1 (racemic) | membrane disruption | SYTOX Green uptake | Escherichia coli, ATCC 25922 | – | – | EC50 | 16 µM |
| Cc1ccc(Cl)cc1NC(=O)c1cc(-c2cccc(O)c2)on1 | mitochondrial permeability transition pore, mouse | – | isolated mouse liver mitochondria | 1.56 µM | reference: untreated | calcium retention capacity ratio | 9.63 ± 0.29 |
| CC(=O)N[C@@H](Cc1ccc(O)cc1)CN(CC(=O)N[C@@H](CCCCN)CN(CC(=O)N[C@@H](CC(C)C)CN(CC(=O)N[C@H]1CCCCNc2c(F)c(F)c(c(F)c2F)S(=O)(=O)c2c(F)c(F)c(c(F)c2F)NCCCC[C@@H](CN(CC(=O)N[C@@H](C)CN(CC(N)=O)S(C)(=O)=O)S(C)(=O)=O)NC(=O)CN(S(=O)(=O)CC(C)C)C[C@H](CC(C)C)NC(=O)CN(S(=O)(=O)CCN)C1)S(=O)(=O)CC(C)C)S(=O)(=O)CCN)S(C)(=O)=O | CREB | reporter gene, inhibitor, CRE Renilla luciferase | HEK-293T | 30 min, together with: forskolin 10 µM for 5 h | – | IC50 | > 100 µM |
| CC[C@H](NC(=O)[C@H](CC(C)C)NC(=O)NCc1ccccc1)C(=O)C(=O)NCc1cccc(Cl)c1OC | calpain | – | – | concentration not given, single separated diastereoisomer | – | calpain inhibition | active |
| CC(=O)N[C@@H](Cc1ccc(O)cc1)CN(CC(=O)N[C@@H](CCCCN)CN(CC(=O)N[C@@H](Cc1ccccc1)CN(CC(=O)N[C@H]1CCCCNc2c(F)c(F)c(c(F)c2F)S(=O)(=O)c2c(F)c(F)c(c(F)c2F)NCCCC[C@@H](CN(CC(=O)N[C@@H](C)CN(CC(N)=O)S(C)(=O)=O)S(C)(=O)=O)NC(=O)CN(S(=O)(=O)CC(C)C)C[C@H](Cc2ccccc2)NC(=O)CN(S(=O)(=O)CCN)C1)S(=O)(=O)CC(C)C)S(=O)(=O)CCN)S(C)(=O)=O | CREB | reporter gene, inhibitor, CRE Renilla luciferase | HEK-293T | 30 min, together with: forskolin 10 µM for 5 h | – | IC50 | 18.2 ± 2.57 µM |
| CC1(C)CC[C@]2(C(=O)O)CC[C@]3(C)C(=CC[C@@H]4[C@@]5(C)CC[C@H](O[C@@H]6OC[C@H](O)[C@H](O)[C@H]6O)[C@@](C)(CO)[C@@H]5CC[C@]43C)[C@@H]2C1 | PPARs | reporter gene, agonist | HepG2 transfected PPRE-luciferase and PPAR | 20 h | – | EC50 | 6.9 ± 1 µM |
| Cc1ncsc1-c1ccc(CNC(=O)[C@@H]2C[C@H](O)CN2C(=O)[C@@H](NC(=O)CN2CCN(C3CN(CCNC(=O)C[C@@H]4N=C(c5ccc(Cl)cc5)c5c(sc(C)c5C)-n5c(C)nnc54)C3)CC2)C(C)(C)C)cc1 | Spodoptera frugiperda BRD3 | degrader, targeted MS | Spodoptera frugiperda L5 larvae | injection, 0.1 nmol/mg | reference: DMSO | BRD3 peptide level increase | 8% |
| Cc1sc2ncn(CC(=O)N3CCCC3)c(=O)c2c1-c1cccc(Br)c1 | NMDA receptor, mouse | single-channel current, outside-out patch | cortical neurons | 50 µM, together with: Ca2+ 0.5 mM | – | γ1 conductance level area | 67% |
| C[C@@H]1O[C@@H](O[C@H]2[C@H](O[C@H]3CC[C@@]4(C)[C@@H](CC[C@]5(C)[C@@H]4CC=C4[C@@H]6CC(C)(C)CC[C@]6(C(=O)O)CC[C@]45C)[C@]3(C)CO)OC[C@H](O[C@@H]3O[C@H](CO)[C@@H](O)[C@H](O)[C@H]3O)[C@@H]2O)[C@H](O)[C@H](O)[C@H]1O | PPARs | reporter gene, agonist | HepG2 transfected PPRE-luciferase and PPAR | 20 h | – | EC50 | 4.2 ± 1.2 µM |
| Cc1ncc(Cl)cc1NC(=O)c1cc(-c2ccc(F)c(O)c2)on1 | mitochondrial permeability transition pore, mouse | mitochondrial swelling inhibition | isolated mouse liver mitochondria | together with: Ca2+ | – | EC50 | 0.0155 ± 0.0018 µM |
| COc1ccc2c(Cl)c(C(N)=O)sc2n1 | none | weak affinity chromatography-MS | ethanolamine reference column | – | – | adjusted retention time | 7.39 min |
| C[n+]1ccc(/C=N/NC(=O)c2cccc(C(=O)N/N=C/c3cc[n+](C)c4ccccc34)n2)c2ccccc21 | G-quadruplex DNA 22CTA antiparallel | UV melting | – | 6 µM, K10 buffer, together with: DNA 3 µM | – | delta Tm | 37 °C |
| O=S(=O)([O-])CCCOCC1(COCCCS(=O)(=O)[O-])CSCCCSCC(COCCCS(=O)(=O)[O-])(COCCCS(=O)(=O)[O-])CSCCCSC1.[Na+].[Na+].[Na+].[Na+] | Cu(I) | competition titration | – | 10 µM, pH 7.0, ionic strength 0.1, together with: Cu(I) 1 µM | higher = stronger binding | pCu | 14.8 |
| CCCCCCCCCCCCCCCCn1cc[n+](Cc2ccccc2)c1C | none | hGrx1-roGFP2 reporter | Trypanosoma brucei brucei bloodstream | 2-fold EC50, 4 h, together with: menadione 250 µM, 20 min | – | biosensor reduction | 62% |
| COc1ccc2c(c1)c1c(C)c3cnccc3c(C)c1n2CCCN1CCN(C)CC1 | PDGFR-β NHE 41-mer G-quadruplex DNA | CD thermal melt | – | – | reference: wild type over R1 A-to-G mutant | ΔTm ratio | 3 fold |
| O=C1Nc2ccc(-c3ccc(-c4ccc(O)cc4)cc3)cc2/C1=C/c1ccc(N2CCNCC2)cc1 | FGFR3 | – | – | – | reference: IC50 FGFR3 over lowest IC50 | selectivity ratio | 1 |
| COc1ccc(-c2cc(C(=O)Nc3cccc(Cl)c3C)no2)cc1O | mitochondrial permeability transition pore, mouse | mitochondrial swelling inhibition | isolated mouse liver mitochondria | together with: Ca2+ | – | EC50 | 2.83e-05 ± 4.8e-06 µM |
| CC[C@H](C)[C@H](NC(=O)[C@H](CCC(=O)O)NC(=O)[C@H](CO)NC(=O)[C@@H](NC(=O)[C@@H](N)CO)C(C)C)C(=O)N[C@@H](CCC(N)=O)C(=O)N[C@@H](CC(C)C)C(=O)N[C@@H](CCSC)C(=O)N[C@@H](Cc1c[nH]cn1)C(=O)N[C@@H](CC(N)=O)C(=O)N[C@@H](CC(C)C)C(=O)NCC(=O)N[C@@H](CCCCN)C(=O)N[C@@H](Cc1c[nH]cn1)C(=O)N[C@@H](CC(C)C)C(=O)N[C@@H](CC(N)=O)C(=O)N[C@@H](CO)C(=O)N[C@@H](CCSC)C(=O)N[C@@H](CCC(=O)O)C(=O)N[C@@H](CCCNC(=N)N)C(=O)N[C@H](C(=O)N[C@@H](CCC(=O)O)C(=O)N[C@@H](Cc1c[nH]c2ccccc12)C(=O)N[C@@H](CC(C)C)C(=O)N[C@@H](CCCNC(=N)N)C(=O)N[C@@H](CCCCN)C(=O)N[C@@H](CCCCN)C(=O)N[C@@H](CC(C)C)C(=O)N[C@@H](CCC(N)=O)C(=O)N[C@@H](CC(=O)O)C(=O)N[C@H](C(=O)N[C@@H](Cc1c[nH]cn1)C(=O)N[C@@H](CC(N)=O)C(=O)N[C@@H](Cc1ccccc1)C(=O)O)C(C)C)C(C)C | PTH1 receptor | cAMP level, Epac FRET sensor | HEK293 | 100 nM, 10 s | – | reduction of FRET signal | ~10% |
| CC(=O)N[C@@H](Cc1ccc(O)cc1)CN(CC(=O)N[C@@H](CCCCN)CN(CC(=O)N[C@@H](Cc1ccccc1)CN(CC(=O)N[C@H]1CCCCNc2c(F)c(F)c(c(F)c2F)S(=O)(=O)c2c(F)c(F)c(c(F)c2F)NCCCC[C@@H](CN(CC(N)=O)S(C)(=O)=O)NC(=O)CN(S(=O)(=O)CC(C)C)C[C@H](CC(C)C)NC(=O)CN(S(=O)(=O)CCN)C1)S(=O)(=O)CC(C)C)S(=O)(=O)CCN)S(C)(=O)=O | CREB | reporter gene, inhibitor, CRE Renilla luciferase | HEK-293T | 30 min, together with: forskolin 10 µM for 5 h | – | IC50 | 64 ± 22.3 µM |
| O=C(N/N=C/c1cc[n+](Cc2ccccc2)c2ccccc12)N/N=C/c1cc[n+](Cc2ccccc2)c2ccccc12 | G-quadruplex DNA 22CTA antiparallel | FRET melting | – | 1 µM, K10 buffer, together with: DNA 0.2 µM | – | delta Tm | 11 to 14 °C |
| Cc1cc(NC(=O)[C@H](O)c2cc(F)cc(F)c2)ccc1-c1cnc(N)c(C(=O)NC(C)C)c1 | phospho-PERK | measured: pPERK/PERK ratio | mouse 786-O xenograft, tumour | 30 mg/kg, 1 h | – | inhibition | ~90% |

Some of these lines once more:
| SMILES | target | assay | system | setting | how to read | endpoint | value |
| --- | --- | --- | --- | --- | --- | --- | --- |
| O=S(=O)([O-])CCCOCC1(COCCCS(=O)(=O)[O-])CSCCCSCC(COCCCS(=O)(=O)[O-])(COCCCS(=O)(=O)[O-])CSCCCSC1.[Na+].[Na+].[Na+].[Na+] | Cu(I) | competition titration | – | 10 µM, pH 7.0, ionic strength 0.1, together with: Cu(I) 1 µM | higher = stronger binding | pCu | 14.8 |
| CCCCCCCCCCCCCCCCn1cc[n+](Cc2ccccc2)c1C | none | hGrx1-roGFP2 reporter | Trypanosoma brucei brucei bloodstream | 2-fold EC50, 4 h, together with: menadione 250 µM, 20 min | – | biosensor reduction | 62% |
